# Experimental data gathered from unrelated publications.
# Every numbered part comes from another study and shows a few of its results, in no order.
# Sequence of UniProt Q9Y388 (15-135, looked up): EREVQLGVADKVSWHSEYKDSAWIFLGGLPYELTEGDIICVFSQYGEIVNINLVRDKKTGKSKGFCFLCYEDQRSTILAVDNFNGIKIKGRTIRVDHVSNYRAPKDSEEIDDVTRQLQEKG

# Series 1
# Target: Interferon regulatory factor 5, full length, phosphomimetic (IRF5, Homo sapiens, UniProt Q13568-2, residues 1-514, K96S/S451D/S453D/S456D/S462D)
# Technique: protein-binding microarray
# Form: double-stranded DNA, one strand shown
# Matrix: in vitro
# Concentration: 250 nM
# Notes: 60-bp whole probe
# With: salmon DNA 0.4 mg/ml
# Baseline: random background probes
# Direction: higher = stronger binding
Strand,log fluorescence
GCCTAGCACTTTGCTCTGTGCATAGGCCTGTGCTAGGTCTTGATTCGCTTGACGCTGCTG,0.0376 z-score
GCCTAGCACTCATTTTTTTTTTCCCTACTGTGCTAGGTCTTGATTCGCTTGACGCTGCTG,1.27 z-score
GCCTAGCACGGTTTTCTAATGTTTTTTAAAGTGCTAGTCTTGATTCGCTTGACGCTGCTG,1.32 z-score
GCCTAGCACGACGGTCTCGGACTGGGGTCGTGCTAGGTCTTGATTCGCTTGACGCTGCTG,-0.429 z-score

# Series 2
# Target: Histone acetyltransferase KAT6A, winged helix 1, GST fusion (KAT6A, Homo sapiens, UniProt Q92794, residues 1-85)
# Technique: protein binding microarray
# Form: double-stranded DNA, one strand shown
# Matrix: in vitro
# Concentration: not given
# Notes: 8-mer, flanks averaged, mean of 2 arrays, mostly near background
# Baseline: not given
# Direction: higher = stronger binding
# Target sequence (chain): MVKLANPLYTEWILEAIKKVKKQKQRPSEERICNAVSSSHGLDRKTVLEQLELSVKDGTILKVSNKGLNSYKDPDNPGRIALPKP
Strand,E-score
ACATCGCT,-0.0955
CTGTAAAG,-0.0847
AGACCTCG,0.0204
TGCAGGAA,-0.254

# Single results of other studies
Molecule,target,assay,test system,setting,scale,quantity,result
AAAAAAAA (biotin),"RNA-binding motif protein, X-linked 2, RRM domain (RBMX2, Homo sapiens, UniProt Q9Y388, residues 15-135)",protein domain microarray,"RNA, in vitro","not given, poly(A) 8-mer RNA, whole probe, immobilized GST-fusion domains, most near background","baseline: GST loading signal, higher = stronger binding",signal ratio,0.106
"PhoQ, residues 284 288 289 292 302 303 TSTLRA","PhoP, residues 12 14 15 18 19 HLGGL (Escherichia coli, UniProt P23836)","Sort-seq, item: YFP reporter",E. coli,"PhoQ-PhoP variant library, with: 10 µM Mg2+","baseline: high Mg2+ state, higher = stronger signaling",fold induction,7.47

# A few entries again (single results of other studies):
Molecule,target,assay,test system,setting,scale,quantity,result
"PhoQ, residues 284 288 289 292 302 303 TSTLRA","PhoP, residues 12 14 15 18 19 HLGGL (Escherichia coli, UniProt P23836)","Sort-seq, item: YFP reporter",E. coli,"PhoQ-PhoP variant library, with: 10 µM Mg2+","baseline: high Mg2+ state, higher = stronger signaling",fold induction,7.47
